Assay results pooled from the literature.
± gives the spread as reported.
GLP1R: Glucagon-like peptide 1 receptor (GLP1R, Homo sapiens, UniProt P43220)
UniProt Q704Y3, sequence (whole entry, unmodified, looked up): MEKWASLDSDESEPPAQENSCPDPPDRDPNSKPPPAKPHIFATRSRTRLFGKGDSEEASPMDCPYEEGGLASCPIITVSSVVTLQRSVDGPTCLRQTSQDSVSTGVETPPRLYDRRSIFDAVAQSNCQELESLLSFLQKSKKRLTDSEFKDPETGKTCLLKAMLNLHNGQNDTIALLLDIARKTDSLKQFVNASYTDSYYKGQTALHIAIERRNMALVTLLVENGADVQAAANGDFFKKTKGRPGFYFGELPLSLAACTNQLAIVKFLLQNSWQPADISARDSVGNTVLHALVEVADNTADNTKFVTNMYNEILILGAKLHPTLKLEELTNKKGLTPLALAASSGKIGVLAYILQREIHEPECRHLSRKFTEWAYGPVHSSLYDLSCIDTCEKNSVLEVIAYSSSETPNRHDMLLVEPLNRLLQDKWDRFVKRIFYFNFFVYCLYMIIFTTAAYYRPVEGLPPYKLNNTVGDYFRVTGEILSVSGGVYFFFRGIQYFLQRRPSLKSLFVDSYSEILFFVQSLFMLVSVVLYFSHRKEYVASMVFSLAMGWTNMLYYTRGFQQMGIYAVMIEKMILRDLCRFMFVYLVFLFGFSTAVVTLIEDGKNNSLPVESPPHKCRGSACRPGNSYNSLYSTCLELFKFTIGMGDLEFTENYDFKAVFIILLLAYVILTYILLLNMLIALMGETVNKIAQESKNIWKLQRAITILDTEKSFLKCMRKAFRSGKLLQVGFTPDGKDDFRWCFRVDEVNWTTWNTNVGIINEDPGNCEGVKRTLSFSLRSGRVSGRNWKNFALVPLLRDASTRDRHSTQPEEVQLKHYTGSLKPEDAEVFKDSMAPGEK
UniProt P47901, sequence (whole entry, looked up): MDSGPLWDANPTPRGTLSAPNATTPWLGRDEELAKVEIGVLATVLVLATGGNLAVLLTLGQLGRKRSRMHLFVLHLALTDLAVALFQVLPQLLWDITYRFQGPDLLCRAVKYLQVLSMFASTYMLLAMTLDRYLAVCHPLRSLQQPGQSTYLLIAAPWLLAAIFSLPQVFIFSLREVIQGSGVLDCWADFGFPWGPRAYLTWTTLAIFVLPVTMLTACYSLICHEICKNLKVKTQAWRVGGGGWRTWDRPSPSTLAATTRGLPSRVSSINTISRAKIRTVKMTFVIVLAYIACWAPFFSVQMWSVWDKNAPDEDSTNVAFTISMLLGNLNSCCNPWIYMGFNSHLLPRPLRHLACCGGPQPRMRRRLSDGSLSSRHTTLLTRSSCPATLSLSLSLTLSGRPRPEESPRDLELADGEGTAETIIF
UniProt P48047, sequence (whole entry, looked up): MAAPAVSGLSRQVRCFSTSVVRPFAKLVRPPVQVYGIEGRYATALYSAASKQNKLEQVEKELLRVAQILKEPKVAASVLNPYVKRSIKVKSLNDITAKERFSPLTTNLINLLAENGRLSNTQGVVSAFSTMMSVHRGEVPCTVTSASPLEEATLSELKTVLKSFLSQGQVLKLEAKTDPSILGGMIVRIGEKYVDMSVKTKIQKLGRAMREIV

For `CC[C@H](C)[C@H](NC(=O)[C@H](Cc1ccccc1)NC(=O)[C@H](CCC(=O)O)NC(=O)[C@H](CCCNC(=N)N)NC(=O)[C@H](C)NC(=O)[C@H](C)NC(=O)[C@H](CCC(N)=O)NC(=O)[C@H](CCC(=O)O)NC(=O)[C@H](CCC(=O)O)NC(=O)[C@H](CC(C)C)NC(=O)[C@H](Cc1ccc(O)cc1)NC(=O)[C@H](CO)NC(=O)[C@H](CO)NC(=O)[C@@H](NC(=O)[C@H](CC(=O)O)NC(=O)[C@H](CO)NC(=O)[C@@H](NC(=O)[C@H](Cc1ccccc1)NC(=O)[C@@H](NC(=O)CNC(=O)[C@H](CCC(=O)O)NC(=O)[C@H](C)NC(=O)CCc1cnc[nH]1)[C@@H](C)O)[C@@H](C)O)C(C)C)C(=O)N[C@@H](C)C(=O)N[C@@H](Cc1c[nH]c2ccccc12)C(=O)N[C@@H](CC(C)C)C(=O)N[C@H](C(=O)N[C@@H](CCCNC(=N)N)C(=O)NCC(=O)N[C@@H](CCCNC(=N)N)C(=O)N[C@@H](CCCCNC(=O)COCCOCCNC(=O)COCCOCCNC(=O)CC[C@H](NC(=O)CCCCCCCCCCCCCCCCC(=O)O)C(=O)O)C(=O)NCC(=O)NCC(=O)N[C@@H](CO)C(=O)N[C@@H](CCCCNc1c(NCCCCCN(O)C(=O)CCC(=O)NCCCCCN(O)C(=O)CCC(=O)NCCCCCN(O)C(C)=O)c(=O)c1=O)C(=O)N[C@@H](CCCCNc1c(NCCCCCN(O)C(=O)CCC(=O)NCCCCCN(O)C(=O)CCC(=O)NCCCCCN(O)C(C)=O)c(=O)c1=O)C(=O)O)C(C)C`, the EC50 was 0.012 nM (GLP1R; cAMP reporter gene, agonist, CRE luciferase; BHK; without Zr, 0% HSA).
For `COc1cc(Nc2ncc(F)c(Nc3ccc4c(n3)NC(=O)C(C)(C)O4)n2)cc(OC)c1OC`, the IC50 was greater than 10000 nM (AVPR1B (Homo sapiens, UniProt P47901)).
For `CC[C@H](C)[C@H](NC(=O)[C@H](Cc1ccccc1)NC(=O)[C@H](CC(=O)O)NC(=O)[C@H](CCCNC(=N)N)NC(=O)[C@@H](NC(=O)[C@H](C)NC(=O)[C@H](CC(C)C)NC(=O)[C@H](CC(N)=O)NC(=O)[C@H](CC(=O)O)NC(=O)[C@H](CC(C)C)NC(=O)[C@@H](NC(=O)[C@@H](NC(=O)[C@H](CO)NC(=O)[C@H](CCSC)NC(=O)[C@H](CCC(=O)O)NC(=O)[C@H](CC(=O)O)NC(=O)[C@H](CO)NC(=O)[C@H](Cc1ccccc1)NC(=O)[C@H](CO)NC(=O)CNC(=O)[C@H](CC(=O)O)NC(=O)[C@H](C)NC(=O)[C@@H](N)Cc1c[nH]cn1)[C@@H](C)O)[C@@H](C)CC)[C@@H](C)O)C(=O)N[C@@H](CC(N)=O)C(=O)N[C@@H](Cc1c[nH]c2ccccc12)C(=O)N[C@@H](CC(C)C)C(=O)N[C@H](C(=O)N[C@@H](CCC(N)=O)C(=O)N[C@H](C(=O)N[C@@H](CCCCN)C(=O)N[C@H](C(=O)N[C@H](C(=O)N[C@@H](CC(=O)O)C(=O)O)[C@@H](C)O)[C@@H](C)CC)[C@@H](C)O)[C@@H](C)CC`, the EC50 was 44 nM (GLP1R; reporter gene, agonist, CRE-luciferase; HEK-293T).
With `CC[C@H](C)[C@H](NC(=O)[C@H](Cc1ccccc1)NC(=O)[C@H](CCC(=O)O)NC(=O)[C@H](CCCNC(=N)N)NC(=O)[C@H](C)NC(=O)[C@H](C)NC(=O)[C@H](CCC(N)=O)NC(=O)[C@H](CCC(=O)O)NC(=O)[C@H](CCC(=O)O)NC(=O)[C@H](CC(C)C)NC(=O)[C@H](Cc1ccc(O)cc1)NC(=O)[C@H](CO)NC(=O)[C@H](CO)NC(=O)[C@@H](NC(=O)[C@H](CC(=O)O)NC(=O)[C@H](CO)NC(=O)[C@@H](NC(=O)[C@H](Cc1ccccc1)NC(=O)[C@@H](NC(=O)CNC(=O)[C@H](CCC(=O)O)NC(=O)[C@H](C)NC(=O)CCc1c[nH]cn1)[C@@H](C)O)[C@@H](C)O)C(C)C)C(=O)N[C@@H](C)C(=O)N[C@@H](Cc1c[nH]c2ccccc12)C(=O)N[C@@H](CC(C)C)C(=O)N[C@H](C(=O)N[C@@H](CCCNC(=N)N)C(=O)NCC(=O)N[C@@H](CCCNC(=N)N)C(=O)N[C@@H](CCCCNC(=O)COCCOCCNC(=O)COCCOCCNC(=O)CC[C@H](NC(=O)CCCCCCCCCCCCCCCCC(=O)O)C(=O)O)C(=O)NCC(=O)NCC(=O)N[C@@H](CO)C(=O)N[C@@H](CCCCNc1c(NCCCCCN(O)C(=O)CCC(=O)NCCCCCN(O)C(=O)CCC(=O)NCCCCCN(O)C(C)=O)c(=O)c1=O)C(=O)O)C(C)C` [zirconium-89 labelled] the tissue uptake was 0.11 %ID/g (rat, duodenum; sc, 3 nmol/kg, 72 h, ex vivo).
For `C[C@H]1CN(c2n[nH]c3nc(N[C@H]4CC[C@H](NS(=O)(=O)CCC(F)(F)F)CC4)ncc23)CCO1`, the remaining binding was 1.24 (ATP synthase peripheral stalk subunit OSCP, mitochondrial (Homo sapiens, UniProt P48047); Kinobeads competition, refers to: ATP5O; 20 µM, unit not given; baseline: vehicle).
`CC[C@H](C)[C@H](NC(=O)[C@H](Cc1ccccc1)NC(=O)[C@H](CCC(=O)O)NC(=O)[C@H](CCCNC(=N)N)NC(=O)[C@H](C)NC(=O)[C@H](C)NC(=O)[C@H](CCC(N)=O)NC(=O)[C@H](CCCCNc1c(NCCCCCN(O)C(=O)CCC(=O)NCCCCCN(O)C(=O)CCC(=O)NCCCCCN(O)C(C)=O)c(=O)c1=O)NC(=O)[C@H](CCC(=O)O)NC(=O)[C@H](CC(C)C)NC(=O)[C@H](Cc1ccc(O)cc1)NC(=O)[C@H](CO)NC(=O)[C@H](CO)NC(=O)[C@@H](NC(=O)[C@H](CC(=O)O)NC(=O)[C@H](CO)NC(=O)[C@@H](NC(=O)[C@H](Cc1ccccc1)NC(=O)[C@@H](NC(=O)CNC(=O)[C@H](CCC(=O)O)NC(=O)[C@H](C)NC(=O)CCc1cnc[nH]1)[C@@H](C)O)[C@@H](C)O)C(C)C)C(=O)N[C@@H](C)C(=O)N[C@@H](Cc1c[nH]c2ccccc12)C(=O)N[C@@H](CC(C)C)C(=O)N[C@H](C(=O)N[C@@H](CCCCNc1c(NCCCCCN(O)C(=O)CCC(=O)NCCCCCN(O)C(=O)CCC(=O)NCCCCCN(O)C(C)=O)c(=O)c1=O)C(=O)NCC(=O)N[C@@H](CCCNC(=N)N)C(=O)N[C@@H](CCCCNC(=O)COCCOCCNC(=O)COCCOCCNC(=O)CC[C@H](NC(=O)CCCCCCCCCCCCCCCCC(=O)O)C(=O)O)C(=O)O)C(C)C` has an EC50 of 0.22 nM (GLP1R; cAMP reporter gene, agonist, CRE luciferase; BHK; with Zr, 1% HSA).
`CCCCC/C=C\C/C=C\C/C=C\C/C=C\CCCC(=O)NCCO` gave an EC50 of 6510 ± 640 nM (Trpv1 (Mus musculus, UniProt Q704Y3, T551S); ion current, agonist, whole-cell patch clamp; 24 °C, T551S, +80 mV).
For `CC[C@H](C)[C@H](NC(=O)[C@H](Cc1ccccc1)NC(=O)[C@H](CCC(=O)O)NC(=O)[C@H](CCCNC(=N)N)NC(=O)[C@H](C)NC(=O)[C@H](C)NC(=O)[C@H](CCC(N)=O)NC(=O)[C@H](CCC(=O)O)NC(=O)[C@H](CCC(=O)O)NC(=O)[C@H](CC(C)C)NC(=O)[C@H](Cc1ccc(O)cc1)NC(=O)[C@H](CO)NC(=O)[C@H](CO)NC(=O)[C@@H](NC(=O)[C@H](CC(=O)O)NC(=O)[C@H](CO)NC(=O)[C@@H](NC(=O)[C@H](Cc1ccccc1)NC(=O)[C@@H](NC(=O)CNC(=O)[C@H](CCC(=O)O)NC(=O)[C@H](C)NC(=O)CCc1cnc[nH]1)[C@@H](C)O)[C@@H](C)O)C(C)C)C(=O)N[C@@H](C)C(=O)N[C@@H](Cc1c[nH]c2ccccc12)C(=O)N[C@@H](CC(C)C)C(=O)N[C@H](C(=O)N[C@@H](CCCNC(=N)N)C(=O)NCC(=O)N[C@@H](CCCNC(=N)N)C(=O)N[C@@H](CCCCNC(=O)COCCOCCNC(=O)COCCOCCNC(=O)CC[C@H](NC(=O)CCCCCCCCCCCCCCCCC(=O)O)C(=O)O)C(=O)NCC(=O)NCC(=O)N[C@@H](CO)C(=O)N[C@@H](CCCCNc1c(NCCCCCN(O)C(=O)CCC(=O)NCCCCCN(O)C(=O)CCC(=O)NCCCCCN(O)C(C)=O)c(=O)c1=O)C(=O)NCC(=O)NCC(=O)N[C@@H](CO)C(=O)N[C@@H](CCCCNc1c(NCCCCCN(O)C(=O)CCC(=O)NCCCCCN(O)C(=O)CCC(=O)NCCCCCN(O)C(C)=O)c(=O)c1=O)C(=O)O)C(C)C`, the EC50 was 0.011 nM (GLP1R; cAMP reporter gene, agonist, CRE luciferase; BHK; without Zr, 0% HSA).
For `CO[C@H]1C[C@@H]2CC[C@@H](C)[C@@](O)(O2)C(=O)C(=O)N2CCCC[C@H]2C(=O)O[C@H]([C@H](C)C[C@@H]2CC[C@@H](OC(=O)NCCOCCOCCOCCOCCOCCOCCOCCOCCC(=O)N3CCc4cc(Cn5nc(-c6ccc7oc(N)nc7c6)c6c(N)ncnc65)ccc4C3)[C@H](OC)C2)C[C@@H](O)[C@H](C)/C=C(\C)[C@@H](O)[C@@H](OC)C(=O)[C@H](C)C[C@H](C)/C=C/C=C/C=C/1C`, “dose-reducing adverse events” read 0% (phase 1 dose escalation, refers to: gastric haemorrhage; advanced solid tumour patients; intravenous, 6 mg weekly, any grade).
With `Clc1cc2c(cc1Cl)Oc1cc(Cl)c(Cl)cc1O2` the EC50 was 0.98 ± 0.63 nM (Uncharacterized protein (Takifugu rubripes, UniProt Q4JHL4); reporter gene, agonist, dual-luciferase; COS-7; 24 h).
With `O=C(C1CCCCC1)N1CC(=O)N2CCc3ccccc3[C@@H]2C1` the EC50 was 361 ± 69 nM (TRPM channel TRPM_PZQ (Schistosoma japonicum, UniProt A0A4Z2DYB8)).
For `C[C@H](N)Cn1ncc2ccc3c(c21)CCCO3`, the EC50 was 15000 nM (HTR1A (Homo sapiens, UniProt P08908); agonist, refers to: cAMP; CHO; together with: forskolin).
The EC50 of `COc1c(O)cc2oc3cc(O)c(CC=C(C)C)c(O)c3c(=O)c2c1CC=C(C)C` is reported as 19900 nM (Cyclin-dependent kinase 2, with cyclin E1 (CDK2, Homo sapiens, UniProt P24941); kinase activity, inhibitor).

A few entries again:
`CC[C@H](C)[C@H](NC(=O)[C@H](Cc1ccccc1)NC(=O)[C@H](CCC(=O)O)NC(=O)[C@H](CCCNC(=N)N)NC(=O)[C@H](C)NC(=O)[C@H](C)NC(=O)[C@H](CCC(N)=O)NC(=O)[C@H](CCCCNc1c(NCCCCCN(O)C(=O)CCC(=O)NCCCCCN(O)C(=O)CCC(=O)NCCCCCN(O)C(C)=O)c(=O)c1=O)NC(=O)[C@H](CCC(=O)O)NC(=O)[C@H](CC(C)C)NC(=O)[C@H](Cc1ccc(O)cc1)NC(=O)[C@H](CO)NC(=O)[C@H](CO)NC(=O)[C@@H](NC(=O)[C@H](CC(=O)O)NC(=O)[C@H](CO)NC(=O)[C@@H](NC(=O)[C@H](Cc1ccccc1)NC(=O)[C@@H](NC(=O)CNC(=O)[C@H](CCC(=O)O)NC(=O)[C@H](C)NC(=O)CCc1cnc[nH]1)[C@@H](C)O)[C@@H](C)O)C(C)C)C(=O)N[C@@H](C)C(=O)N[C@@H](Cc1c[nH]c2ccccc12)C(=O)N[C@@H](CC(C)C)C(=O)N[C@H](C(=O)N[C@@H](CCCCNc1c(NCCCCCN(O)C(=O)CCC(=O)NCCCCCN(O)C(=O)CCC(=O)NCCCCCN(O)C(C)=O)c(=O)c1=O)C(=O)NCC(=O)N[C@@H](CCCNC(=N)N)C(=O)N[C@@H](CCCCNC(=O)COCCOCCNC(=O)COCCOCCNC(=O)CC[C@H](NC(=O)CCCCCCCCCCCCCCCCC(=O)O)C(=O)O)C(=O)O)C(C)C` has an EC50 of 0.22 nM (GLP1R; cAMP reporter gene, agonist, CRE luciferase; BHK; with Zr, 1% HSA).
`CCCCC/C=C\C/C=C\C/C=C\C/C=C\CCCC(=O)NCCO` gave an EC50 of 6510 ± 640 nM (Trpv1 (Mus musculus, UniProt Q704Y3, T551S); ion current, agonist, whole-cell patch clamp; 24 °C, T551S, +80 mV).
